Experimental data of several laboratories.
Compare with care: the assays were run in different laboratories. ± marks the error that the study gave.
Magi2: Membrane-associated guanylate kinase, WW and PDZ domain-containing protein 2 (Magi2, Mus musculus, UniProt Q9WVQ1)
Sequence of UniProt Q9WVQ1 (whole entry, looked up): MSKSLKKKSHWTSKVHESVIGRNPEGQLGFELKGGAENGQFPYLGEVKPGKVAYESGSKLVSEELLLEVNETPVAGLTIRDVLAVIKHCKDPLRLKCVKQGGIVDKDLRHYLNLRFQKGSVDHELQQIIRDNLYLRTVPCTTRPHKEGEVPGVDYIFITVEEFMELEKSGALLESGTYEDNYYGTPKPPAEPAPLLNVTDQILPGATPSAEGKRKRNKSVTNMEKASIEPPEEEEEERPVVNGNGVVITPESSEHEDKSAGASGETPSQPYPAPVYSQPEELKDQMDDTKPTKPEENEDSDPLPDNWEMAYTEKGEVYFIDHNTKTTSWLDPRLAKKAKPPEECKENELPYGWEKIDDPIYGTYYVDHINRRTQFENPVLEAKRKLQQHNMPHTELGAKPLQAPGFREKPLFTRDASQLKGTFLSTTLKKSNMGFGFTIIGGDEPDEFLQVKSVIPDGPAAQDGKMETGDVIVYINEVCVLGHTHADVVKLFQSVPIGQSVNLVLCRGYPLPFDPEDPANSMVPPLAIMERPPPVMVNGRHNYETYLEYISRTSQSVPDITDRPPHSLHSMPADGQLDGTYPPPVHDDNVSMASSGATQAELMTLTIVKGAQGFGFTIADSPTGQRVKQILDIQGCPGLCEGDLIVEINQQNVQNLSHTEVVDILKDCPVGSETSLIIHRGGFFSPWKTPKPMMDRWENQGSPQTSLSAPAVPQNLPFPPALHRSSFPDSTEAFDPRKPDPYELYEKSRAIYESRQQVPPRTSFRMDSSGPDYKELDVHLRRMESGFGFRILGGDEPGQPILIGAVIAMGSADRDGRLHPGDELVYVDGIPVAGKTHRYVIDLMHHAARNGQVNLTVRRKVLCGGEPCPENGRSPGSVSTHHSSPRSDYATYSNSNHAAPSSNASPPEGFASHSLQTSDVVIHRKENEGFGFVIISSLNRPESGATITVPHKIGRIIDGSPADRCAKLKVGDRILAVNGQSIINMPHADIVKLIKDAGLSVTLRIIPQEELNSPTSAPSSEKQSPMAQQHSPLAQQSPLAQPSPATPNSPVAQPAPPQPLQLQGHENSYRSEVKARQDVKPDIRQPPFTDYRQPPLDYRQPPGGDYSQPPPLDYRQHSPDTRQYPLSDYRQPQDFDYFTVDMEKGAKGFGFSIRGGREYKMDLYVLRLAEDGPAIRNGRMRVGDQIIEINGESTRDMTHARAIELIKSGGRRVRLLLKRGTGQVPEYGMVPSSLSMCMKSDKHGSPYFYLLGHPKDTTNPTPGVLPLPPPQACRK
Chymotrypsin-C S216A: Chymotrypsin-C (Homo sapiens, UniProt Q99895, S216A)
Sequence of UniProt Q99895 (whole entry, unmodified, looked up): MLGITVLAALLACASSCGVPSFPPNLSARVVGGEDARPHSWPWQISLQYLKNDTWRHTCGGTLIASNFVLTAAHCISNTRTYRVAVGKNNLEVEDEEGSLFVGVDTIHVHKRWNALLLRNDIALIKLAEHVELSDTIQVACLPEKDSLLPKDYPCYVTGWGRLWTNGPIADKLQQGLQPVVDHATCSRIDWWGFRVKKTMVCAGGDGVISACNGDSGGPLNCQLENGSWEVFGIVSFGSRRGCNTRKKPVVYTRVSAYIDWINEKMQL
14-3-3 protein epsilon: 14-3-3 protein epsilon (Homo sapiens, UniProt P62258)
Sequence of UniProt P62258 (whole entry, looked up): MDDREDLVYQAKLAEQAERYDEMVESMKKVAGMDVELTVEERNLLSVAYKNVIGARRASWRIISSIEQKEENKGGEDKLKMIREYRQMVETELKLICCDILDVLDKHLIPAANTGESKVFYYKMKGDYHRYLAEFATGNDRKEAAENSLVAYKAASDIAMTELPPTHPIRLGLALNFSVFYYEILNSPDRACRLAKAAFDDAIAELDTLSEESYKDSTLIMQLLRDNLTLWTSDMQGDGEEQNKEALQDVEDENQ
Sequence of UniProt Q9UI08 (whole entry, looked up): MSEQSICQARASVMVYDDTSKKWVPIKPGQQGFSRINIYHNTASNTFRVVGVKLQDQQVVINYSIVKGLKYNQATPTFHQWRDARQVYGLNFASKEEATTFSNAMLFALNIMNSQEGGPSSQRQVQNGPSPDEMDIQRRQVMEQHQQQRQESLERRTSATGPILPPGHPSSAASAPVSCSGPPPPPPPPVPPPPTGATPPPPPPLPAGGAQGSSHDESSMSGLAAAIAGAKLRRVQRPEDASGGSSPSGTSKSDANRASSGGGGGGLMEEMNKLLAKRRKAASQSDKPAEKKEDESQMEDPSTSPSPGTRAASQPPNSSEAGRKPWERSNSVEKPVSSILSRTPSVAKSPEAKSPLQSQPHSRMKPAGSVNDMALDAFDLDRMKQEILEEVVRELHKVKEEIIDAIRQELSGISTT
Sequence of UniProt P29597 (whole entry, looked up): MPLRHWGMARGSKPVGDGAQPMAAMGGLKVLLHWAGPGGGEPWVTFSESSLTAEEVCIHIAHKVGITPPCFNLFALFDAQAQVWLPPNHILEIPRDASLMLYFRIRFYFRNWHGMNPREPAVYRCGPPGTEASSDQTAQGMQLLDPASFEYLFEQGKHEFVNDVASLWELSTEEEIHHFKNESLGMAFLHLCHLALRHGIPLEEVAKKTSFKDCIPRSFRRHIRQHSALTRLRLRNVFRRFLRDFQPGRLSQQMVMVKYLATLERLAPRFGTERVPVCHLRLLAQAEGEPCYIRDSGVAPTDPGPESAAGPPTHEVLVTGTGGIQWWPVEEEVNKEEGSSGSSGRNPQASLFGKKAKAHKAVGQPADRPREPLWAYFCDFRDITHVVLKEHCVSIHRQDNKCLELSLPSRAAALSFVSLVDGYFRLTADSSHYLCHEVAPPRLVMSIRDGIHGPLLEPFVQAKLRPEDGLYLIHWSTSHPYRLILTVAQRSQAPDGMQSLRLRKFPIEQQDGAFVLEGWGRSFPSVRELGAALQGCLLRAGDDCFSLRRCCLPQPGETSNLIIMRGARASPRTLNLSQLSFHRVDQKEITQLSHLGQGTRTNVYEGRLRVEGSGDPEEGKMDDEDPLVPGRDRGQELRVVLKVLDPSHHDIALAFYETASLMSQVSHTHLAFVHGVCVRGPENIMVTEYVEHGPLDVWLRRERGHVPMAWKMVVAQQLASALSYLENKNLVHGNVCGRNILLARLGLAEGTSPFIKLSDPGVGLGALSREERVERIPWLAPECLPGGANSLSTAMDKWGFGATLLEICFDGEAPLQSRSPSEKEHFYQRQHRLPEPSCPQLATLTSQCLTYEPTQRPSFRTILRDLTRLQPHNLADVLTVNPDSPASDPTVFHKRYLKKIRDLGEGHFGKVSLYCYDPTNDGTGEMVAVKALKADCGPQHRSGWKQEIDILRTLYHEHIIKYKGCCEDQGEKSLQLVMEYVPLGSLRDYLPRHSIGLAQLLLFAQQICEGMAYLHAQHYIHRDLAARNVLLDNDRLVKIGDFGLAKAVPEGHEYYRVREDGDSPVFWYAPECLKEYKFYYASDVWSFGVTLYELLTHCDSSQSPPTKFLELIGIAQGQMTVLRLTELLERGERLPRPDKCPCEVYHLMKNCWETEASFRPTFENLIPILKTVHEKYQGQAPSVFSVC
Sequence of UniProt P08069 (whole entry, looked up): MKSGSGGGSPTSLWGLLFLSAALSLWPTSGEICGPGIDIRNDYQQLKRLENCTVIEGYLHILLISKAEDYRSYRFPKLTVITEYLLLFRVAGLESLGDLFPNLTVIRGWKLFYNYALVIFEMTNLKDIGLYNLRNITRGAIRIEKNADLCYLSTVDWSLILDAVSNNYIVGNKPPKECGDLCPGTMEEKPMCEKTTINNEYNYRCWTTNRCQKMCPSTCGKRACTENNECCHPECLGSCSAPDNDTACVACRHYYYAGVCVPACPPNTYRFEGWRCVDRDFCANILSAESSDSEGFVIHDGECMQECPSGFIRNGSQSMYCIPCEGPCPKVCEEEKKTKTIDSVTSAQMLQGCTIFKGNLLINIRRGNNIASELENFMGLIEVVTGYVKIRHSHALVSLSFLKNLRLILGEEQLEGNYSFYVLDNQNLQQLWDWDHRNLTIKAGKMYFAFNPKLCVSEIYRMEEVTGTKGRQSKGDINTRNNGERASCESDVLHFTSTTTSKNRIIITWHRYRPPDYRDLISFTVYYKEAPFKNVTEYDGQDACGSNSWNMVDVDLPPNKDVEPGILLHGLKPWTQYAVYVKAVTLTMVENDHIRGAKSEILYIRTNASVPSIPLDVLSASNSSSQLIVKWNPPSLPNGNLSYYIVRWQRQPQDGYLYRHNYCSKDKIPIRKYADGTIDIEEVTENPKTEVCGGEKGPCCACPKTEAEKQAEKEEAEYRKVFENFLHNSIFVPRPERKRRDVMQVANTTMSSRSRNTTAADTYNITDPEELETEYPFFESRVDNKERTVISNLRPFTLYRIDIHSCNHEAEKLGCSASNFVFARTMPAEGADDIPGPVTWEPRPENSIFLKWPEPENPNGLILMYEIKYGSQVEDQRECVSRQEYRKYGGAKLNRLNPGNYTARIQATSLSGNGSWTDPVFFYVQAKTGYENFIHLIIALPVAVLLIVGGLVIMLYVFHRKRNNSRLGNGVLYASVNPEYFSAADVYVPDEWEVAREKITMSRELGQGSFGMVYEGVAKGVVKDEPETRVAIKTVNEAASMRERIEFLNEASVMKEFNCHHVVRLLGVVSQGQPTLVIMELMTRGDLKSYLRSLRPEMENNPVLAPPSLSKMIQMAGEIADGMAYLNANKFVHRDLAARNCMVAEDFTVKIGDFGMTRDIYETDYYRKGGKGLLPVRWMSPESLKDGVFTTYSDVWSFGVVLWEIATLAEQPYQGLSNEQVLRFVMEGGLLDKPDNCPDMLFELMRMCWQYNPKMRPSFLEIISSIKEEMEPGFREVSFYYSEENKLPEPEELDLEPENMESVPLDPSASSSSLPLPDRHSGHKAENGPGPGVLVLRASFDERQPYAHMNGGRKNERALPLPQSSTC

SMILES | target | assay | setting | Kd
O=C(N[C@@H]1c2ccccc2C[C@H]1N1CCCC1)c1ccc(-c2ccnc3[nH]ccc23)nc1 | Non-receptor tyrosine-protein kinase TYK2, JH1 (TYK2, Homo sapiens, UniProt P29597) | binding, competition with immobilised ligand |  | 690 nM
CC(C)C[C@H](NC(=O)[C@H](CO)NC(=O)[C@@H]1CCCN1C(=O)[C@H](CCC(N)=O)NC(=O)[C@@H](NC(=O)[C@H](C)NC(=O)[C@H](CCCCN)NC(=O)[C@H](CC(C)C)NC(=O)[C@H](Cc1ccc(O)cc1)NC(=O)[C@H](COP(=O)(O)O)NC(=O)[C@H](CCC(=O)O)NC(=O)[C@H](CC(N)=O)NC(=O)[C@H](CCCNC(=N)N)NC(=O)[C@H](C)NC(=O)[C@H](C)N)[C@@H](C)O)C(=O)O | Magi2 | ITC | pH 8.0, 25 °C, with: tandem peptide | 60 ± 10 nM
CC(C)C[C@H](NC(=O)[C@@H]1CCCN1C(=O)CCOCCOCCOCCOCCOCCOCCOCCOCCNC(=S)Nc1ccc2c(c1)C(=O)OC21c2ccc(O)cc2Oc2cc(O)ccc21)C(=O)N[C@@H](Cc1cncn1CCCCCCCCc1ccccc1)C(=O)N[C@@H](C)C(=O)N[C@H](C(N)=O)[C@@H](C)CP(=O)(O)O | Serine/threonine-protein kinase PLK2, polo-box (PLK2, Homo sapiens, UniProt Q9NYY3) | binding, FP |  | > 2560 nM
CC(C)C[C@@H]1NC(=O)[C@H](CC(C)C)NC(=O)[C@H](CC(C)C)NC(=O)[C@H]([C@@H](C)O)NC(=O)[C@@H]2CSSC[C@@H]3NC(=O)[C@H]([C@@H](C)O)NC(=O)[C@H](CC(N)=O)NC(=O)[C@H](CSSC[C@@H](C(=O)N[C@@H](CC(=O)O)C(=O)N[C@@H](CCC(N)=O)C(=O)O)NC1=O)NC(=O)[C@H](CCCCN)NC(=O)[C@H](CC(=O)O)NC(=O)[C@H](CCCCN)NC(=O)[C@H](Cc1ccccc1)NC(=O)[C@H]([C@@H](C)O)NC(=O)[C@H]([C@@H](C)O)NC(=O)CNC(=O)[C@@H]1CCCN1C(=O)[C@H](CCC(=O)O)NC(=O)[C@@H](NC(=O)[C@@H](NC(=O)[C@@H](NC(=O)[C@H](CCC(=O)O)NC(=O)[C@H](CO)NC(=O)CN)C(C)C)[C@@H](C)O)CSSC[C@H](NC(=O)[C@H](CCCNC(=N)N)NC3=O)C(=O)NCC(=O)N[C@@H](CO)C(=O)N[C@@H](CC(=O)O)C(=O)NCC(=O)N[C@@H](CCCCN)C(=O)N[C@@H](CO)C(=O)N[C@@H](C)C(=O)N[C@@H](Cc1c[nH]c3ccccc13)C(=O)N2 | Chymotrypsin-C S216A | competitive fluorescence polarization | 24 h, pH 8.0, with: FITC-labelled tracer | 3.62 ± 0.41 nM
CC(=O)N[C@@H](CCCNC(=N)N)C(=O)N[C@H](C(=O)N[C@@H](CCCCN)C(=O)N[C@@H](CO)C(=O)N[C@@H](CCCNC(=N)N)C(=O)N[C@H](C(=O)N[C@@H](Cc1c[nH]c2ccccc12)C(=O)N[C@@H](C)C(=O)N[C@@H](Cc1c[nH]c2ccccc12)C(N)=O)[C@@H](C)OP(=O)(O)O)[C@@H](C)O | 14-3-3 protein epsilon | binding, SPR | pH 7.4 | 76.2 nM
CSCC[C@@H]1NC(=O)[C@H](Cc2ccccc2)NC(=O)[C@H]([C@@H](C)O)NC(=O)[C@@H]2CSSC[C@@H]3NC(=O)[C@H]([C@@H](C)O)NC(=O)[C@H](CC(N)=O)NC(=O)[C@H](CSSC[C@@H](C(=O)N[C@@H](CC(=O)O)C(=O)N[C@@H](CCC(N)=O)C(=O)O)NC(=O)[C@H](CC(C)C)NC1=O)NC(=O)[C@H](CCCCN)NC(=O)[C@H](CC(=O)O)NC(=O)[C@H](CCCCN)NC(=O)[C@H](Cc1ccccc1)NC(=O)[C@H]([C@@H](C)O)NC(=O)[C@H]([C@@H](C)O)NC(=O)CNC(=O)[C@@H]1CCCN1C(=O)[C@H](CCC(=O)O)NC(=O)[C@@H](NC(=O)[C@@H](NC(=O)[C@@H](NC(=O)[C@H](CCC(=O)O)NC(=O)[C@H](CO)NC(=O)CN)C(C)C)[C@@H](C)O)CSSC[C@H](NC(=O)[C@H](CCCNC(=N)N)NC3=O)C(=O)NCC(=O)N[C@@H](CO)C(=O)N[C@@H](CC(=O)O)C(=O)NCC(=O)N[C@@H](CCCCN)C(=O)N[C@@H](CO)C(=O)N[C@@H](C)C(=O)N[C@@H](C)C(=O)N2 | Chymotrypsin-C (Homo sapiens, UniProt Q99895) | cell-free assay, FP | pH 8 | 0.61 nM
CC(C)C[C@H](NC(=O)[C@H](CO)NC(=O)[C@@H]1CCCN1C(=O)[C@H](CCC(N)=O)NC(=O)[C@@H](NC(=O)[C@H](C)NC(=O)[C@H](CCCCN)NC(=O)[C@H](CC(C)C)NC(=O)[C@H](Cc1ccc(O)cc1)NC(=O)[C@H](COP(=O)(O)O)NC(=O)[C@@H]1CCCN1C(=O)[C@H](CCCNC(=N)N)NC(=O)[C@H](CCCNC(=N)N)NC(=O)[C@H](C)NC(=O)[C@H](C)N)[C@@H](C)O)C(=O)O | Magi2 | ITC | pH 8.0, 25 °C, with: tandem peptide | 70 nM
C[C@H](NC(=O)[C@H](Cc1c[nH]c2ccccc12)NC(=O)[C@H](CO)NC(=O)[C@H](Cc1ccc(O)cc1)NC(=O)[C@@H](N)CC(=O)O)C(=O)N[C@@H](CCC(=O)O)C(=O)N[C@@H](CCC(=O)O)C(=O)N[C@@H](CCC(=O)O)C(=O)N[C@@H](CC(=O)O)C(=O)N[C@@H](CCC(=O)O)C(=O)O | Histone H2B 1.1/Histone H2A type 1 (Xenopus laevis, UniProt P02281+P06897) | binding, intrinsic tryptophan fluorescence | pH 7.6, 20 °C, with: H2A/H2B | 22600 ± 4400 nM
CC(=O)N[C@@H](CCCNC(=N)N)C(=O)N[C@H](C(=O)N[C@@H](CCCCN)C(=O)N[C@@H](CO)C(=O)N[C@@H](CCCNC(=N)N)C(=O)N[C@H](C(=O)N[C@@H](Cc1c[nH]c2ccccc12)C(=O)N[C@@H](C)C(=O)N[C@@H](Cc1ccc(O)cc1)C(N)=O)[C@@H](C)OP(=O)(O)O)[C@@H](C)O | 14-3-3 protein epsilon | binding, SPR | pH 7.4 | 93.1 nM
CC(=O)N[C@@H](CO)C(=O)N[C@@H](Cc1ccccc1)C(=O)N[C@@H](CCC(=O)O)C(=O)N[C@@H](Cc1ccccc1Cl)C(=O)N1CCC[C@]12C=C[C@@H]1CC[C@@H](C(=O)N3CC[C@@H]4C=C[C@H]5CC[C@@H](C(=O)N[C@H](C(=O)N[C@@H](CCC(=O)O)C(=O)N[C@@H](CC(=O)O)C(=O)N[C@@H](CCC(=O)O)C(=O)N[C@@H](CC(C)C)C(N)=O)[C@@H](C)O)N5C(=O)[C@H]43)N1C2=O | Ena/VASP-like protein, EVH1 domain (EVL, Homo sapiens, UniProt Q9UI08) | fluorescence titration |  | 190 nM
CSCC[C@@H]1NC(=O)[C@H](CC(C)C)NC(=O)[C@H]([C@@H](C)O)NC(=O)[C@@H]2CSSC[C@@H]3NC(=O)[C@H]([C@@H](C)O)NC(=O)[C@H](CC(N)=O)NC(=O)[C@H](CSSC[C@@H](C(=O)N[C@@H](CC(=O)O)C(=O)N[C@@H](CCC(N)=O)C(=O)O)NC(=O)[C@H](CC(C)C)NC1=O)NC(=O)[C@H](CCCCN)NC(=O)[C@H](CC(=O)O)NC(=O)[C@H](CCCCN)NC(=O)[C@H](Cc1ccccc1)NC(=O)[C@H]([C@@H](C)O)NC(=O)[C@H]([C@@H](C)O)NC(=O)CNC(=O)[C@@H]1CCCN1C(=O)[C@H](CCC(=O)O)NC(=O)[C@@H](NC(=O)[C@@H](NC(=O)[C@@H](NC(=O)[C@H](CCC(=O)O)NC(=O)[C@H](CO)NC(=O)CN)C(C)C)[C@@H](C)O)CSSC[C@H](NC(=O)[C@H](CCCNC(=N)N)NC3=O)C(=O)NCC(=O)N[C@@H](CO)C(=O)N[C@@H](CC(=O)O)C(=O)NCC(=O)N[C@@H](CCCCN)C(=O)N[C@@H](CO)C(=O)N[C@@H](C)C(=O)N[C@@H](Cc1ccc(O)cc1)C(=O)N2 | Chymotrypsin-C S216A | competitive fluorescence polarization | 24 h, pH 8.0, with: FITC-labelled tracer | 0.72 ± 0.1 nM
CC(=O)NCC(=O)N[C@@H](Cc1ccc(O)cc1)C(=O)NCC(=O)N[C@@H](CO)C(=O)N[C@@H](CO)C(=O)N[C@@H](CO)C(=O)N[C@@H](CCCNC(=N)N)C(=O)N[C@@H](CCCNC(=N)N)C(=O)N[C@@H](C)C(=O)N1CCC[C@H]1C(=O)N[C@@H](CCC(N)=O)C(=O)N[C@H](C(=O)O)[C@@H](C)O | IGF1R (Homo sapiens, UniProt P08069) | binding, MST |  | 296 nM
CC(=O)NC1C(OC2C(O)C(CO)OC(O)C2OC2OC(C)C(O)C(O)C2O)OC(CO)C(O)C1O (centres unmarked) | Intermedilysin (Streptococcus intermedius, UniProt Q9LCB8) | binding |  | 9850 nM
O=C(O)c1ccc(O)c(O)c1 | R15A mutant protein, Streptomyces coelicolor | isothermal titration calorimetry | 1.5 mM | no binding
